Measured values gathered from unrelated publications.
Values joined by “and” are separate records of one study, mostly repeats; a detail may differ. Numbers after ± are the reported error.

Cc1cnc(NC2CCOCC2)nc1-n1cnc(C(=O)NC(CN)c2cc(F)cc(Cl)c2)c1 (centres unmarked) — result for “G2 phase cells”: 22.7% (Rec1; flow cytometry; 1 µM, 24 h).
Cc1cc(C)n(-c2nc(-c3ccc(Cl)cc3)c3c(NC(=O)c4ccccc4)nnc-3[nH]2)n1 gave a cell growth of 107% (NCI-H322M; SRB; 10 µM, NCI60 single-dose screen; reference: untreated).
NC(=O)NOCCCCCCCCCC[P+](c1ccccc1)(c1ccccc1)c1ccccc1.O=C([O-])C(F)(F)F has a cell confluence of 67% (HCT-116; cell growth, live-cell imaging; 5 µM, control at 90% confluence).
The viability loss of O=C1N(Cc2ccccc2Cl)c2ccccc2C12NN=C(c1ccccc1)S2 (centres unmarked) is reported as 80 to 90% (H2373 and H2461 mesothelioma; MTT; 10 µM, 24 h).
CC(=O)c1nn(-c2ccc(Cl)cc2)/c(=N/N=C(\C)c2ccc(NC(=O)c3ccc(C)cc3)cc2)s1 has a viability of 59.8% (MCF7; 0.312 µM).
NC(=O)NOCCCCCCCCCCCCCCCC[P+](c1ccccc1)(c1ccccc1)c1ccccc1.O=C([O-])C(F)(F)F has a cell confluence of 81.1% (HCT-116; cell growth, live-cell imaging; 0.3 µM, control at 90% confluence).
For COc1ccc(COc2ccc(Cc3cnc(N)nc3N)cc2OC)cc1, the beat rate was 102% (hiPSC-derived cardiomyocytes (iCell); impedance (xCELLigence Cardio); concentration not given, 2 h; reference: control).
For CCN(Cc1ccc(F)cc1)c1ccc(CO)c(Cl)c1, the IC50 was 160 nM (RBE; cell viability, CellTiter-Glo).
For NC(=O)NOCCCC[P+](c1ccccc1)(c1ccccc1)c1ccccc1.O=C([O-])C(F)(F)F, the cell confluence was 47.2% (HCT-116; cell growth, live-cell imaging; 600 µM, control at 90% confluence).
Nc1cccc2c1CN(C1CCC(=O)NC1=O)C2=O (centres unmarked) has a viability of 98% (bone marrow CD138+ myeloma cells; XTT; 0.4 µM, phenol red-free RPMI).
For Cc1c(C(=O)O)ccc2c3n(nc12)[C@@H]1[C@H](C3)N(CC2CC2)[C@@]2(C(=O)Nc3cc(Cl)ccc32)[C@H]1c1cccc(Cl)c1F, the GI50 was 16 nM (LS180 (MDM2 non-amplified); cell growth, alamarBlue; 120 h).
C=CC1=C(C)c2cc3[n-]c(cc4nc(cc5[n-]c(cc1n2)c(C)c5C=C)C(C)=C4CCC(=O)O)c(CCC(=O)O)c3C.[Zn+2] gave a fold change of 1.9 (SH-SY5Y; RNA-seq, measured: LDLR mRNA; 5 µM, 5 h; reference: untreated cells).
For CC/C(=N\NC(=O)NCc1cccc(O)c1)c1ccc(O)c(C)c1O, the protein level was 1.53 ± 0.76 (SK-OV-3; Western blot, measured: TAZ; 1 µM, 1 h, 2D culture, unit not given; reference: β-actin).
With [177Lu+3].[Cl-].[Cl-].[Cl-] the dead cells was 34.2% (4T1; flow cytometry; 0.4 Bq/cell, 72 h).
The viability of COc1ccc(-n2nc(C(C)=O)s/c2=N\N=C(/C)c2ccc(NC(=O)c3ccc(Cl)cc3)cc2)cc1 is reported as 84% (HepG2; 0.078 µM).
The GI50 of O=C(/C=C/C=C/C=C/C1CCCCC1)NC1=C[C@@](O)(/C=C/C=C/C=C/C(=O)NC2=C(O)CCC2=O)[C@@H]2O[C@@H]2C1=O is reported as 10200 nM (SNU-16; cell growth, CellTiter-Glo; 78 h).
C[C@H](CCC(=O)NCCS(=O)(=O)O)[C@H]1CC[C@H]2[C@@H]3CC[C@@H]4C[C@H](O)CC[C@]4(C)[C@H]3CC[C@]12C has a proliferation increase of 49% (human PKD renal epithelial cells; cell confluence; 20 µM, 24 h; reference: untreated).
With Cn1cc(-n2cnc3c(NCc4nc5cc(Cl)c(Cl)cc5[nH]4)nc(N4CCOCC4)nc32)cn1 the mRNA level was 0.678 and 0.576 and 0.623 (MDA-MB-231; qRT-PCR, measured: FANCI; 0.05 µM, 6 h, unit not given; reference: DMSO).
The IC50 of NCc1ccc(-c2nn(Cc3ccncc3)c3ccccc23)o1 is reported as 600 nM (RBE; cell viability, CellTiter-Glo).
The funny current of CCN(CCO)CCCC(C)Nc1ccnc2cc(Cl)ccc12 (centres unmarked) is reported as -17.2 pA and -6.2 pA and -13.5 pA and -16.3 pA (hiPSC-derived cardiomyocytes; perforated patch voltage clamp; 10 µM, added: hyperpolarizing step to -120 mV).
COc1cc2ncnc(Nc3ccc(Oc4ccccc4)c(C)c3C)c2cc1OC.Cl — result for “average fractional effect”: 26% (LoVo (KRAS G13D); cell viability, resazurin; 1 µM, 72 h, added: trametinib 0 nM; reference: DMSO).
For CCN(Cc1ccc(OC)cc1)c1ccc(CO)c(Cl)c1, the IC50 was 200 nM (RBE; cell viability, CellTiter-Glo).
With CCn1cc(-c2cc(Cn3ccoc3=N)cc3c2CCN([C@@H](C)c2cc(OC)ccn2)C3=O)c(C(F)(F)F)n1 the EC50 was 3100 nM (SU-DHL-4; cell growth, inhibitor; 120 h).
OCc1ccc(-c2nn(Cc3ccccc3)c3cccnc23)o1 has an IC50 of 2420 nM (RBE; cell viability, CellTiter-Glo).
For Cc1cc(Nc2ncc(Cl)c(Nc3ccccc3S(=O)(=O)C(C)C)n2)c(OC(C)C)cc1C1CCNCC1, “log2 fold change” read -3 (CLB-BAR; phosphoproteomics LC-MS/MS, measured: SLC35B3 phosphorylation; 200 nM, 60 min; reference: untreated).
With C=Cc1c2[n-]c(c1C)/C=c1\[n-]/c(c(C)c1C=C)=C\c1[n-]c(c(CCC(=O)O)c1C)/C=c1\[n-]c(c(C)c1CCC(=O)O)=C2.[Sn+4] the fold change was 1.81 (SH-SY5Y; RNA-seq, measured: RGS3 mRNA; 5 µM, 5 h; reference: untreated cells).
For Cn1cc(-c2ccc(-c3cncc(Cl)c3N3CCC4(CCNC4=O)CC3)cc2)cn1, “log2 fold change” read -2.67 (COLO 205; gene expression, microarray, measured: HIST1H4F mRNA; concentration not given, 2 h; reference: untreated cells).
CC(C)C[C@H](NC(=O)[C@H](CCc1ccccc1)NC(=O)CN1CCOCC1)C(=O)N[C@@H](Cc1ccccc1)C(=O)N[C@@H](CC(C)C)C(=O)[C@@]1(C)CO1 gave an intracellular content of 7 pmol/mg protein (HCC1937; LC-MS/MS; concentration not given, after pulse treatment).
With COc1cc(Oc2ccnc3cc(OC)c(OC)cc23)ccc1NC(=O)NC(C)c1nccs1 (centres unmarked) the beat amplitude was 99% (hiPSC-derived cardiomyocytes (iCell); impedance (xCELLigence Cardio); concentration not given, 2 h; reference: control).
The mRNA level of COc1cc(/C=C/C(=O)N2CCC=CC2=O)cc(OC)c1OC is reported as 99.8 ± 10.8% (MDA-MB-468; qRT-PCR, measured: ENO1; 30 µM, 6 h; reference: time zero).
COc1cnc2cccc(N3CCc4c(cc(Cn5ccnc5C)cc4-c4cn(C)nc4C(F)(F)F)C3=O)c2c1 gave an EC50 of 26300 nM (Caov-3; cell growth, inhibitor; 120 h).
Cc1ccc(CNC(=O)Cn2cc(CSc3nc4ccccc4[nH]3)nn2)cc1 gave a cytotoxicity of 89.4% (MDA-MB-231; MTT; 62.5 ppm).
Cc1nn(-c2ccccc2Br)c(C)c1C(=O)Nc1ccc2ccccc2n1 gave an inhibition of > 70% (Wnt-HEK293; Wnt/β-catenin signalling, inhibitor, luciferase reporter; 1 µM).
For CC(C)NCC(O)c1ccc(O)c(O)c1 (centres unmarked), the sarcomere length was 1.76 µm (mouse ventricular cardiomyocytes; dose not given, 0.419 s).
CCn1cc(-c2cc(Cn3ccnc3)cc3c2CCN([C@H](c2cc(OC)ccn2)C2CC2)C3=O)c(C(F)(F)F)n1 gave an EC50 of 4500 nM (SU-DHL10; cell growth, inhibitor; 120 h).
O=C(C[C@@H](C(F)F)n1ccc(F)n1)N1CCC(O)(Cn2cnc3c(cnn3-c3ccc(F)cc3)c2=O)CC1: “late apoptotic cells” 6.4% and 9.95% and 7.07% (CHP-212 resistant; annexin V/PI flow cytometry; 1 µM, 48 h).
For NC(=O)NOCCCCCCCCCCCC[P+](c1ccccc1)(c1ccccc1)c1ccccc1.O=C([O-])C(F)(F)F, the cell confluence was 65.4 ± 6.25% (HCT-116; cell growth, live-cell imaging; 1.5 µM, control at 90% confluence).
Under “reduction of cell number”, O=P1(C2CCCCC2)CCCCC1 is recorded as 56 to 60% (SW-620; trypan blue; IC50, 72 h; reference: untreated).
Cc1cccc(-c2[nH]c(CNc3ccccc3F)nc2-c2ccc3ncnn3c2)n1 gave an IFN-gamma production of 1.45% and 1.23% and 1.35% and 1.56% and 1.58% and 1.08% (CD8+ T cells from myeloma patient; ELISA; human; 1 µM, 192 h).
Cc1ccc(NC(=O)c2ccc(CN3CCN(C)CC3)cc2)cc1Nc1nc(-c2cccnc2)cs1 gave a beat amplitude of 106% (hiPSC-derived cardiomyocytes (iCell); impedance (xCELLigence Cardio); concentration not given, 2 h; reference: control).
With CCN(Cc1cccc(OC)c1)c1ccc(CO)c(Cl)c1 the IC50 was 120 nM (RBE; cell viability, CellTiter-Glo).
